Values quoted from earlier work as cited in several papers.
Each line is one published result; not all experiments were run side by side. Numbers after ± are the reported error.

Compound	tested on	test	test system	setting	quantity	result
O=C(CC(=O)N[C@H]1CCOC1=O)Cc1ccccc1	LuxR	reporter gene, luxI-luxCDABE reporter	–	–	IC50	2000 nM
Cc1ccc(Cn2cc(CNC3=C(Cl)C(=O)c4cccnc4C3=O)nn2)cc1	CDC25C	–	–	–	IC50	90 nM
COc1cccc(/C=C2/SC(=N)NC2=O)c1OC	urea transporter B (UT-B)	urea transport, inhibitor	–	–	IC50	~43000 nM
CNc1cccc(CCOc2ccc(C[C@H](NC(=O)c3c(Cl)cccc3Cl)C(=O)O)cc2)n1	integrin α5β1	–	K562	–	IC50	7 nM
CCCCCCCCCCCCCC(=O)NCC(O)c1ccccc1 (stereo not drawn)	acid ceramidase (purified)	micellar	–	–	IC50	1290 nM
Cc1cc(=O)n(C)c2cc(N3C(=O)CC[C@@H](NS(=O)(=O)CC(C)C)[C@@H]3c3ccccc3)ccc12	BRD9 bromodomain	binding	–	–	IC50	5000 nM
O=C(CCc1ccc(C(F)(F)F)cc1)N[C@H]1CCOC1=O	TraR, Agrobacterium tumefaciens	reporter gene, antagonist, traI-lacZ reporter	–	–	IC50	200 nM
CCCCCCCC/C=C\CCCCCCCC(=O)N[C@H](CCCCN)C(=O)O	glycine transporter 2	glycine uptake	–	–	IC50	25 nM
COc1cccc(-c2cc(F)ccc2[C@H]2Cc3nc(N)nc(C)c3C(=O)N2)n1	Grp94	inhibitor	–	–	IC50	8.5 nM
CC(C)CCN(C(=O)CCCCCCC(=O)NO)c1ncc(C(=O)NCCCn2ccnc2)s1	NAMPT	–	–	–	IC50	15 nM
CCc1ccc(-c2cc(C(N)=O)c(NC3CCC(O)CC3)cc2C)cc1 (stereo not drawn)	Grp94	–	–	–	IC50	50 nM
CC(C)=CCC/C(C)=C\CCn1cc(CC(C)(P(=O)(O)O)P(=O)(O)O)nn1	geranylgeranyl diphosphate synthase	enzyme activity, inhibitor	–	–	IC50	86 nM
CCc1cccc(Sc2cc(C(=O)N3Cc4ccccc4C3)ccc2O)c1	Grp94	–	–	–	IC50	33900 nM
CN(C)C/C=C/C(=O)Nc1ccc(C(=O)Nc2cccc(Nc3cc(-c4c[nH]c5ccccc45)ncn3)c2)cc1	ABL1 kinase	enzyme activity, inhibitor	–	–	IC50	< 320 nM
Cc1cc(NC2CCN(C(=O)OC3CCN(C(=O)/C=C/CN(C)C)C3)CC2)n2ncc(C(C)C)c2n1 (stereo not drawn)	CDK7	inhibitor	–	–	IC50	92.8 nM
O=C(C=C(O)C(F)(F)C(F)(F)F)c1cccnc1	Plasmodium falciparum formate-nitrite transporter	L-lactate transport, inhibitor, radiolabelled uptake	yeast	–	IC50	110 ± 10 nM
Cc1[nH]c(=O)c(CNC(=O)c2cc(Cl)c3c(c2C)O[C@@](C)([C@H]2CC[C@H](N(C)C)CC2)O3)c(C)c1O	EZH1	enzyme activity, inhibitor	–	–	IC50	240 nM
CCNc1ccc(C(=O)C=C(O)C(F)(F)C(F)(F)F)cn1	Plasmodium falciparum formate-nitrite transporter	L-lactate transport, inhibitor, radiolabelled uptake	yeast	–	IC50	120 ± 10 nM
COc1cccc(CNC(=O)c2ccc3cccc(O)c3n2)c1	urea transporter UT-A1	inhibitor	–	–	IC50	~5300 nM
CCCOc1ccc(C=C2C(=O)NN(c3ccccc3)C2=O)c2cnccc12	P2Y12 receptor	–	–	–	IC50	10 nM
COc1ccc(C)cc1S(=O)(=O)Nc1ccc(Cl)c(N2CCCS2(=O)=O)c1	urea transporter B (UT-B)	urea transport, inhibitor	–	–	IC50	~10000 nM
CC(C)NCCCn1c(Sc2cc(Cl)cc(Cl)c2)nc2c(N)ncnc21	Hsp90α	inhibitor	–	–	IC50	27300 nM
O=C(Cc1ccc(Br)cc1)N[C@H]1CCOC1=O	LuxR	reporter gene, luxI-luxCDABE reporter	–	–	IC50	4000 nM

Compound	tested on	test	test system	setting	quantity	result
CC(C)=CCCC(C)=CCCn1cc(CC(P(=O)(O)O)P(=O)(O)O)nn1	geranylgeranyl diphosphate synthase	enzyme activity, inhibitor	–	–	IC50	45 nM
N=C(N)c1ccc(OCCCCCCCCCCOc2ccc(C(=N)N)cc2)cc1	PRMT5	–	–	–	IC50	43000 nM
COc1cc2ncc3[nH]c(=O)n([C@H](C)c4ccccn4)c3c2cc1-c1c(C)noc1C	BRD3	–	–	–	IC50	250 nM
CC(=O)Nc1ccc(C(=O)C=C(O)C(F)(F)C(F)(F)F)cn1	Plasmodium falciparum formate-nitrite transporter	L-lactate transport, inhibitor, radiolabelled uptake	yeast	–	IC50	210 ± 10 nM
COc1ccc(Nc2nc(Nc3ccc(OCC[18F])cc3)ncc2Br)cc1	–	–	S180 tumour-bearing mice, tumor	intravenous, 5 min	tissue uptake	3.39 ± 0.25 %ID/g
CN(CCN)Cc1ccccc1Sc1ccccc1Cl	PRMT1	enzyme activity, inhibitor, AlphaLISA	–	–	IC50	1.1 nM
COC(F)(F)C(F)(F)C(O)=CC(=O)c1cccnc1	Plasmodium falciparum formate-nitrite transporter	L-lactate transport, inhibitor, radiolabelled uptake	yeast	–	IC50	310 ± 10 nM
CS(=O)(=O)Nc1ccc(-c2cncc(-c3cccc4cc[nH]c34)c2)cc1	PI5P4Kα	inhibitor	–	–	IC50	2000 nM
OCCNc1nc(NCCc2ccccc2)c2cnn(/C=C\c3ccccc3)c2n1	SGK1	–	–	literature value	IC50	600 nM
CC(C)(C)Nc1ccc(C(=O)C=C(O)C(F)(F)C(F)(F)F)cn1	Plasmodium falciparum formate-nitrite transporter	L-lactate transport, inhibitor, radiolabelled uptake	yeast	–	IC50	370 ± 40 nM
CC(C)c1cc(C(=O)N2Cc3ccccc3C2)c(O)c2cnoc12	Grp94	–	–	–	IC50	5000 nM
Cc1cc(C)c(C(=O)N[C@@H](Cc2ccc(N3CCC(CNc4ccccn4)CC3)cc2)C(=O)O)c(C)c1	integrin α5β1	–	HEK293	–	IC50	173 nM
CCCc1cc2cc(-n3nc(CC)c4c3CC(C)(C)CC4=O)cc(NC3CCC(O)CC3)c2c(=O)[nH]1 (stereo not drawn)	Hsp90β	inhibitor	–	–	IC50	58 nM
c1cc(-c2nnc3scnn23)ccn1	OCRL	enzyme activity, inhibitor	–	–	IC50	710 nM
O=C(CCc1ccc(Br)cc1)N[C@H]1CCOC1=O	LuxR	reporter gene, luxI-luxCDABE reporter	–	–	IC50	1000 nM
O=C(C=C(O)C(F)(F)C(F)(F)Cl)c1cccnc1	Plasmodium falciparum formate-nitrite transporter	L-lactate transport, inhibitor, radiolabelled uptake	yeast	–	IC50	180 ± 30 nM
CN(C)c1ccc(C(=O)N2CCC(n3cncc3-c3ccc(OS(=O)(=O)c4cccc5cnccc45)cc3)CC2)cc1	P2X7 receptor	fluorescence	–	–	IC50	0.11 ± 0.04 nM
Cn1nnnc1Sc1ncnc2scc(-c3cccc(S(C)(=O)=O)c3)c12	PI5P4Kγ	inhibitor	–	–	IC50	16000 nM
O=C(C=C(O)C(F)(F)C(F)(F)F)c1ccc(NC(=O)c2ccccc2)nc1	Plasmodium falciparum formate-nitrite transporter	L-lactate transport, inhibitor, radiolabelled uptake	yeast	–	IC50	370 ± 20 nM
C[C@H](CN(C)Cc1ccccc1)NC(=O)c1ccc(-c2noc(C(F)(F)F)n2)cc1	HDAC5	–	–	–	IC50	1.2 ± 0.17 nM
CCCCCCCCCCCCCC(=O)N[C@H](C)[C@@H](O)c1ccccc1	acid ceramidase	radiometric	HL-60 and HaCaT	–	IC50	> 500000 nM
O=C(C=C(O)C(F)(F)C(F)(F)F)c1ccc(NCc2ccc(F)cc2)nc1	Plasmodium falciparum formate-nitrite transporter	L-lactate transport, inhibitor, radiolabelled uptake	yeast	–	IC50	390 ± 30 nM

Excerpt of the above:
Compound	tested on	test	test system	setting	quantity	result
Cc1cc(=O)n(C)c2cc(N3C(=O)CC[C@@H](NS(=O)(=O)CC(C)C)[C@@H]3c3ccccc3)ccc12	BRD9 bromodomain	binding	–	–	IC50	5000 nM
O=C(CCc1ccc(Br)cc1)N[C@H]1CCOC1=O	LuxR	reporter gene, luxI-luxCDABE reporter	–	–	IC50	1000 nM
O=C(C=C(O)C(F)(F)C(F)(F)Cl)c1cccnc1	Plasmodium falciparum formate-nitrite transporter	L-lactate transport, inhibitor, radiolabelled uptake	yeast	–	IC50	180 ± 30 nM
Cc1cc(C)c(C(=O)N[C@@H](Cc2ccc(N3CCC(CNc4ccccn4)CC3)cc2)C(=O)O)c(C)c1	integrin α5β1	–	HEK293	–	IC50	173 nM
Cc1cc(NC2CCN(C(=O)OC3CCN(C(=O)/C=C/CN(C)C)C3)CC2)n2ncc(C(C)C)c2n1 (stereo not drawn)	CDK7	inhibitor	–	–	IC50	92.8 nM
COc1cccc(CNC(=O)c2ccc3cccc(O)c3n2)c1	urea transporter UT-A1	inhibitor	–	–	IC50	~5300 nM
N=C(N)c1ccc(OCCCCCCCCCCOc2ccc(C(=N)N)cc2)cc1	PRMT5	–	–	–	IC50	43000 nM
